Experimental data pooled from the literature.
Every numbered part comes from another study and shows a few of its results, in no order.

Block 1
Target: Histone acetyltransferase KAT6A, winged helix 1, GST fusion (KAT6A, Homo sapiens, UniProt Q92794, residues 1-85)
Method: protein binding microarray
Form: double-stranded DNA, one strand shown
Matrix: in vitro
Tested at: not given
Notes: 8-mer, flanks averaged, mean of 2 arrays, mostly near background
Baseline: not given
Direction: higher = stronger binding
Quantity: E-score
Residues (chain): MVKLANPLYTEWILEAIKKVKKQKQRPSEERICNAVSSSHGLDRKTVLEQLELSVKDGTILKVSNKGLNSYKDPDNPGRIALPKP
Oligonucleotide = CGACGCGA; value = 0.347
Oligonucleotide = CTCTCCTA; value = -0.0482
Oligonucleotide = CTGTGCAC; value = 0.101
Oligonucleotide = CCTCTAGC; value = -0.149
Oligonucleotide = CAGCTCAA; value = -0.265
Oligonucleotide = CTTGCTCA; value = -0.138

Block 2
Target: Hepatocyte nuclear factor 3-beta, forkhead domain (FOXA2, Homo sapiens, UniProt Q9Y261, residues 142-269)
Method: protein-binding microarray
Form: double-stranded DNA, one strand shown
Matrix: in vitro
Tested at: not given
Notes: k-mer, scored over probes, only values ≥0.25
Direction: higher = stronger binding
Quantity: E-score
Residues (chain): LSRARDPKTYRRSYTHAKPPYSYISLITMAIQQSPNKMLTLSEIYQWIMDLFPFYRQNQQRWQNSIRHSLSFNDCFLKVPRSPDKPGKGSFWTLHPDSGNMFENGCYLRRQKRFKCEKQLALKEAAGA
Oligonucleotide = ATACCTAC; value = 0.286
Oligonucleotide = GTCAACAA; value = 0.365
Oligonucleotide = TACTAACA; value = 0.301
Oligonucleotide = ATATAAAT; value = 0.302
Oligonucleotide = ATAAACAT; value = 0.312
Oligonucleotide = TTACACAA; value = 0.284
Oligonucleotide = TAACCAAA; value = 0.302

Block 3
Target: RNA binding protein fox-1 homolog 2, RRM domain, GST-SBP tag (RBFOX2, Homo sapiens, UniProt O43251-10, residues 100-194)
Method: RNA Bind-n-Seq
Form: RNA
Matrix: in vitro
Tested at: 365 nM
Notes: natural RNA segment, single round, ends assumed
Baseline: no-protein control
Direction: higher = stronger binding
Quantity: RBNS enrichment (R)
Shared flanks, not repeated: GGGAGUUCUACAGUCCGACGAUC … UGGAAUUCUCGGGUGCCAA
Residues (chain): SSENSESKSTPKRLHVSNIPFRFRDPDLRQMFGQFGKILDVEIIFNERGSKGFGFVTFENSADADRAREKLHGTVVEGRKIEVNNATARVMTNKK
Oligonucleotide = AUAUUUUUAAUAUUUGGGGCAUGAGUUGUCCCUGUUUGAGAGUUCCCAUUACUAAUGUAGAAAUGUUAAAUGGUAAAACAUAAUUUGCUAAAAUGACCAGUUUUCAGAUU; value = 1.34
Oligonucleotide = UGGGCUCUCUAGGUGGCCCUGGUCUUGCCCCAUCCAUCCCACCUGCCACUACCUUGGGUGUCCUUACAGCUCUGCCCUGACCCCAGCCCCUGCCCCUGGACACCUGCUGA; value = 0.684
Oligonucleotide = AGAAAAAGGCUGUGGAUUCUUUGAGGACAUCACUAGAAAUCAUUCUUUGUCUCAAGUUCACACUCUUAGCAUAGAAUAUUAUUGACUAGGCUGUAUGACAUUUUGAGCUC; value = 0.304
Oligonucleotide = AUGGGGAAGUCCUGGGUGUGGGGACACAGUCGGGUUGACCCAGGGCUGUCUCCCUCCAGAGCCUCCCUCCGGACAAUGAGUCCCCCCUCUUGUCUCCCACCCUGAGAUUG; value = 0.44
Oligonucleotide = CAGCCUGGGGGGGUUCUGAGCAGUGCCUCUUGUCUUGGAGACAGACCUGGUGCCUGGCGCUGCCUUCAGCAGGCAGCAGGCAGCCUCCUGCACACUGGCUUUUUUAGUCA; value = 0.927

Mixed results
Molecule = PhoQ, residues 284 288 289 292 302 303 SCEHLI; target = PhoP, residues 12 14 15 18 19 TQCLL (Escherichia coli, UniProt P23836); test = Sort-seq, measured: YFP reporter; test system = E. coli; conditions = PhoQ-PhoP variant library, together with: 10 µM Mg2+; scale = baseline: high Mg2+ state, higher = stronger signaling; quantity = fold induction; value = 5.45

Repeated from above (block 1):
Oligonucleotide = CAGCTCAA; value = -0.265
Oligonucleotide = CTTGCTCA; value = -0.138
Oligonucleotide = CGACGCGA; value = 0.347
